Measured values from different studies.
Protocols differ between the studies behind these lines. “And” joins repeats or separate records; there may be more than shown. Numbers after ± are the reported error.
Kir1 channel protein: Kir1 channel protein (Aedes aegypti, UniProt L0EQS9)
KCNJ13 M125R: Inward rectifier potassium channel 13 (KCNJ13, Homo sapiens, UniProt O60928, M125R)
STS: Steryl-sulfatase (STS, Homo sapiens, UniProt P08842)
KCNK18: Potassium channel subfamily K member 18 (KCNK18, Homo sapiens, UniProt Q7Z418)
Urease: Urease (Canavalia ensiformis, UniProt P07374)

| Compound | target | assay | test system | setting | IC50 |
| --- | --- | --- | --- | --- | --- |
| Cc1ncc(CNc2cc(N3CCN(S(=O)(=O)c4ccc(F)cc4)CC3)ccc2[N+](=O)[O-])s1 | Kir1 channel protein | ion flux, inhibitor, fluorescence |  |  | 0.82 µM |
| N=c1n(Cc2ccccc2)c2ccccc2n1CC(O)COc1cc(F)cc(F)c1 (stereo not drawn) | KCNJ13 M125R | ion flux, inhibitor |  |  | 4.2 µM |
| CCCC(CCC)C(=O)O | HDAC (Lucilia cuprina egg nuclear extract) | enzyme activity, inhibitor, fluorometric |  |  | > 100 µM |
| CN=c1nc(-c2ccccc2)n(-c2ccccc2)s1 | L-aminoadipate-semialdehyde dehydrogenase-phosphopantetheinyl transferase (AASDHPPT, Homo sapiens, UniProt Q9NRN7) | phosphopantetheinylation, inhibitor, fluorescence polarization |  | 45 min, pH 7.6, 10% DMSO, with: VibB 10 µM and rhodamine-CoA 5 µM | > 100 µM |
| COC(=O)C1=C(C)NC(C)=C([N+](=O)[O-])[C@H]1c1ccccc1C(F)(F)F | Voltage-dependent T-type calcium channel subunit alpha-1H (CACNA1H, Homo sapiens, UniProt O95180) | calcium current, blocker, automated patch clamp |  | tonic block, holding -90 mV | 11.5 ± 0.6 µM |
| Nc1ncnc2c1ncn2[C@@H]1O[C@H](CSCC[C@H](N)C(=O)O)[C@@H](O)[C@H]1O | Histone-lysine N-methyltransferase 2A, with RbBP5 and WDR5 (KMT2A, Homo sapiens, UniProt Q03164) | FL-NAH displacement, fluorescence polarization |  | 30 min, trimeric complex, with: 50 nM FL-NAH | 2 ± 0.2 µM |
| N#Cc1ccc(C(Cc2ccc(OS(N)(=O)=O)c(Br)c2)n2cncn2)cc1 (racemic) | STS | enzyme activity, inhibitor |  |  | 0.593 ± 0.006 µM |
| O=C(NC1CC1)n1ccc2c3c(=O)cc(-c4ccccc4)[nH]c3ccc21 | Tubulin alpha-1B chain/TUBB2B (Bos taurus, UniProt P81947+Q6B856) | tubulin polymerization, turbidimetry |  | 20 min | 2.2 to 2.4 µM |
| O=C(O)c1cc(O)c2c(c1)C(=O)c1cccc(O)c1C2=O | DNA oxidative demethylase ALKBH2 (ALKBH2, Homo sapiens, UniProt Q6NS38) | 3-methylcytosine repair, inhibitor, HPLC |  | 1 h, 37 °C, with: ssDNA 16mer 5 µM | 52.7 µM |
| [Cl][Eu]([Cl])[Cl] | human MMP-2 catalytic domain | inhibitor |  | pH 7.5, 37 °C, 45 min preincubation, with: DQ-gelatin | 10 ± 0.58 µM |
| C/C=C1\C(=O)C[C@H]2[C@@H]3CCC4=CC(=O)CC[C@]4(C)[C@H]3CC[C@]12C | KCNK18 | ion flux, inhibitor |  |  | 11.9 µM |
| Cc1cc(C)cc(OCC(O)Cn2c(=N)n(Cc3ccccc3)c3ccccc32)c1 (stereo not drawn) | KCNJ13 M125R | ion flux, inhibitor |  |  | 3.03 µM |
| NC(=O)c1cccc(-c2cc(OC(=O)NC3CCCCC3)ccc2O)c1 | Bifunctional epoxide hydrolase 2 (Ephx2, Rattus norvegicus, UniProt P80299) | enzyme activity, inhibitor, fluorescence |  | pH 7.4 | 16.6 µM |
| O=C(NO)c1ccc(Cn2c3c(c4cc(Br)ccc42)SC(c2ccccc2)C3)s1 (stereo not drawn) | Histone deacetylase 8 (Schistosoma mansoni, UniProt A5H660) | enzyme activity, inhibitor, Fluor-de-Lys |  | varied substrate concentration, with: Fluor-de-Lys substrate 50 µM | 5.17 ± 2.58 µM |
| N=c1n(Cc2ccccc2)c2ccccc2n1CC(O)COc1ccc(OCc2ccccc2)cc1 (stereo not drawn) | KCNJ13 M125R | ion flux, inhibitor |  |  | > 100 µM |
| Cc1cc(OCC(=O)N/N=C/c2cccc(OCc3cn(Cc4ccc(Br)cc4)nn3)c2)c2c(C)cc(=O)oc2c1 | Urease | enzyme activity, inhibitor |  |  | 10.1 ± 0.28 µM |
| S=C(Nc1ccccc1)N1CCc2ccccc2C1 | Urease | enzyme activity, inhibitor, absorbance |  |  | 26.7 µM |
| CC(C)C[C@H](NC(=O)[C@H](CC(N)=O)NC(=O)[C@H](CC(C)C)NC(=O)[C@@H](NC(=O)[C@@H](NC(=O)[C@@H]1CCCN1C(=O)[C@H](CCCNC(=N)N)NC(=O)[C@H](CCCCN)NC(=O)[C@@H]1CCCN1C(=O)[C@H](CCCNC(=N)N)NC(=O)[C@H](CCCNC(=N)N)NC(=O)[C@H](CCCNC(=N)N)NC(=O)[C@H](CCCNC(=N)N)NC(=O)[C@H](CCC(N)=O)NC(=O)[C@H](CCCNC(=N)N)NC(=O)[C@H](CCCNC(=N)N)NC(=O)[C@H](CCCCN)NC(=O)[C@H](CCCCN)NC(=O)[C@H](CCCNC(=N)N)NC(=O)CNC(=O)[C@@H](N)Cc1ccc(O)cc1)[C@@H](C)O)[C@@H](C)O)C(=O)N[C@@H](Cc1ccccc1)C(N)=O | Mitogen-activated protein kinase 8 (MAPK8, Homo sapiens, UniProt P45983) | kinase activity, inhibitor |  | 60 min, pH 7.4, 30 °C, with: 1 µM Sab substrate, 1 µM ATP | 0.022 ± 0.01 µM |
| CC(C)OCCn1c(=S)[nH]c(=O)c2[nH]ccc21 | Myeloperoxidase (MPO, Homo sapiens, UniProt P05164) | HOCl production |  | 6 min, enzyme 10 nM, with: H2O2 50 µM, taurine 5 mM | 0.59 µM |
| Cn1c2ccccc2c2c3c(c4c5ccccc5n(CCC#N)c4c21)CNC3=O | Leucine-rich repeat serine/threonine-protein kinase 2 (LRRK2, Homo sapiens, UniProt Q5S007) | LRRKtide phosphorylation, inhibitor |  | 25 °C, with: 1 µM ATP | ~0.25 µM |

| Compound | target | assay | test system | setting | IC50 |
| --- | --- | --- | --- | --- | --- |
| O=[N+]([O-])c1ccc(N2CCN(S(=O)(=O)c3ccc(F)cc3)CC2)cc1NCc1ncco1 | Kir1 channel protein | ion flux, inhibitor, fluorescence |  |  | 0.177 µM |
| COc1cccc(-c2cc(=O)c3ccccc3o2)c1N | KCNK18 | ion flux, inhibitor |  |  | 14.6 µM |
| N=c1n(Cc2ccccc2)c2ccccc2n1CC(O)COc1ccc(Cl)cc1 (stereo not drawn) | KCNJ13 M125R | ion flux, inhibitor |  |  | 5.17 µM |
| COc1ccc(Cn2c(NCCNC(=N)NC(=O)c3ccc(F)cc3)nc(=O)n(Cc3ccc(F)cc3)c2=O)cc1 | Prokineticin receptor 1 (PROKR1, Homo sapiens, UniProt Q8TCW9) | ligand displacement, radioligand |  |  | 0.11 µM |
| COc1cc(C2C(C#N)=C(N)Oc3c2c(=O)[nH]c2ccccc32)ccc1OCc1cn(Cc2ccc(C)cc2)nn1 (stereo not drawn) | Alpha-glucosidase MAL12 (MAL12, Saccharomyces cerevisiae S288c, UniProt P53341) | enzyme activity |  |  | 9.09 µM and 9.9 µM |
| CN(C)c1ccc(/N=N/c2ccc(NC(=S)N3CCc4ccccc4C3)cc2)cc1 | Urease | enzyme activity, inhibitor, absorbance |  |  | 32.7 µM |
| CCN(CC)C(=S)S | Carbamate kinase (Giardia intestinalis, UniProt A8BB85) | enzyme activity, ATP luminescence |  |  | 16.3 µM |
| O=c1cc(-c2ccc(O)cc2)oc2ccccc12 | Cytochrome P450 2B1 (Cyp2b1, Rattus norvegicus, UniProt P00176) | enzyme activity, inhibitor | supersomes | with: pentoxyresorufin 5 µM | > 50 µM |
| Cc1ccc(OCC(O)Cn2c(=N)n(C)c3ccccc32)cc1 (stereo not drawn) | Inward rectifier potassium channel 4 (Homo sapiens, UniProt P48050) | ion flux, inhibitor, fluorescence |  |  | 16.5 µM |
| C=C(C)CCOP(=O)(O)OP(=O)(O)OP(=O)(O)OC[C@H]1O[C@@H](n2cnc3c(N)ncnc32)[C@H](O)[C@@H]1O | Cyclin-dependent kinase 7 (CDK7, Homo sapiens, UniProt P50613) | enzyme activity, inhibitor, HotSpot kinase |  | with: ATP 1 µM | 1.6 µM |
| C[C@]12CC[C@@H]3c4cc(C(F)F)c(OS(N)(=O)=O)cc4CC[C@H]3[C@@H]1CCC2=O | STS | inhibitor | JEG-3 |  | 5.5e-05 µM |
| COc1cccc2c1c(O)c(C(=O)N(c1ccc(C(F)(F)F)cc1)C1CCCCC1)c(=O)n2C | Histone deacetylase 4, with MEF2, NCoR1 (HDAC4, Homo sapiens, UniProt P56524) | NCoR1-MEF-2 complex formation, immunoprecipitation | CWR22Rv1 | 1% O2 hypoxia | < 1 µM |
| Cc1nc2ccccc2n1Cc1ccc(C(=O)NO)cc1 | Histone deacetylase 11 (HDAC11, Homo sapiens, UniProt Q96DB2) |  |  | concentration not given | 9.81 µM |
| C[C@@H]1O[C@@H](O[C@H]2[C@H](Oc3cc(O)c4c(c3)O[C@H](c3ccc(O)cc3)CC4=O)O[C@H](CO)[C@@H](O)[C@@H]2O)[C@H](O)[C@H](O)[C@H]1O | Solute carrier organic anion transporter family member 2B1 (SLCO2B1, Homo sapiens, UniProt O94956) | transporter uptake, inhibitor, radiometric | MDCK-II | 3 min, pH 6 | 34 to 40 µM and 20 to 50 µM |
| Cc1cccc(Cc2nn(C(C)(C)C)c3ncnc(N)c23)c1 | Ephrin type-B receptor 1 (EPHB1, Homo sapiens, UniProt P54762, G703C) | enzyme activity, inhibitor, radiometric |  |  | 0.98 µM |
| CCCCc1nc2cc(/C=C/C(=O)NO)ccc2n1CCN(CC)CC | HDAC (Lucilia cuprina egg nuclear extract) | enzyme activity, inhibitor, fluorometric |  |  | 0.69 µM |
| Cc1ccc2nc(C3CCC3)n(-c3ccc4[nH]ncc4c3)c2n1 | GRIA1/CACNG8 (Homo sapiens, UniProt P42261+Q8WXS5) | calcium influx, antagonist, FLIPR | HEK293 expressing GluA1o | with: glutamate 100 µM | 0.00126 µM |
| CN1CCN(CCC(=O)Nc2ccc3c(c2)Sc2cccc(-c4cc(=O)cc(N5CCOCC5)o4)c2S3)CC1 | Serine-protein kinase ATM (ATM, Homo sapiens, UniProt Q13315) | enzyme activity, inhibitor |  |  | 0.003 µM |
| O=c1cc(-c2cccc3ccccc23)[nH][nH]1 | Alkaline phosphatase, tissue-nonspecific isozyme (ALPL, Homo sapiens, UniProt P05186) | enzyme activity, inhibitor, colorimetric OD405 |  | HTS library sample, with: 0.5 mM pNPP | 21 µM |
